Results from different studies.
Lines come from different studies, so protocols differ. Numbers after ± are the reported error. In brackets after ≈: the same amount, converted by molar mass.

For `O=[N+]([O-])c1ccc(NC2CCNCC2)c(C(F)(F)F)c1`, the induction factor was 0.6 (Salmonella typhimurium; genotoxicity, SOS/umu test; TA1535/pSK1002; 0.031 mg/mL, 4 h, with S9, full range).
For `[Cl-].[Cl-].[Pt+2].[Ru+2].c1ccc(-c2nccnc2-c2ccccn2)nc1.c1cnc2c(c1)ccc1cccnc12.c1cnc2c(c1)ccc1cccnc12`, the hatching rate was 3.33 ± 3.1% (Danio rerio; embryos; 90 µM, 96 h).
For `CC(=O)N1CCC(C(=O)N2CCN3C(=O)c4cc(-c5ccccc5)ccc4NC(=O)C3C2)CC1` (stereo not shown), “revertants per plate” read 113 (Salmonella typhimurium; TA100; 1.58 µg/plate, added: rat liver S9).
`COc1ccc(C[C@H](NC(=O)[C@H](C)NC(=O)CN2CCOCC2)C(=O)N[C@@H](Cc2ccccc2)C(=O)C2(C)CO2)cc1` (stereo in doubt) gave a selectivity ratio of over 2240 (Plasmodium falciparum; Cam WT, artemisinin-sensitive; relative to: HEK-293T CC50 over IC50).
`[Cl-].[Cl-].[Pt+2].[Ru+2].c1ccc(-c2nc3ccccc3nc2-c2ccccn2)nc1.c1cnc2c(c1)ccc1cccnc12.c1cnc2c(c1)ccc1cccnc12` has a survival rate of 80 ± 1.6% (Danio rerio; embryos; 30 µM, 96 h).
For `O=[N+]([O-])c1ccc(N2CCC(NCCC(O)c3ccc(F)c4ccccc34)CC2)c(C(F)(F)F)c1` (stereo not shown), the induction factor was 1 (Salmonella typhimurium; SOS response, SOS/umu test; TA1535/pSK1002, TGA medium; 7.63e-06 mg/mL, 4 h, added: 10% rat liver S9; relative to: untreated).
The toxic concentration of `CN(N=O)c1ccc(F)cc1` is reported as at least 1500 µg/plate (Salmonella typhimurium and Escherichia coli; TA98, TA100, TA1535, TA1537, WP2uvrA pKM101, methanol; concentration not given, 3 days, added: hamster S9 10%).
For `Cc1cc(C(=O)NC(C)(C)COc2cccc3c2C(N)=NS(=O)(=O)N3)cc(C)n1`, the revertant ratio was 0.9 (Salmonella typhimurium; Ames test, confirmatory; TA1535; 333 µg/plate; relative to: solvent control).
`Nc1nc2c(ncn2COCCO)c(=O)[nH]1` gave a therapeutic index of 2.16 (Herpes simplex virus 2; BEAS-2B, compound-resistant; relative to: CC50 over IC50).
For `OC(CCN1CC=C(c2ccc(F)cc2)CC1)c1ccc(F)c2ccccc12` (stereo not shown), the survival was 91.1% (Salmonella typhimurium; SOS/umu test; TA1535/pSK1002; 0.004 mg/mL, 4 h, with S9, lower range).
`COc1cccc(-c2n[nH]c(SCc3ccccn3)n2)c1OC`: “revertant colonies per plate” 18 (Salmonella typhimurium; Ames test, plate incorporation; TA1535; 0.016 mg/plate, without S9).
`COc1ccnc(C(=O)N[C@H]2COC(=O)[C@H](Cc3ccccc3)[C@@H](OC(=O)C(C)C)[C@H](C)OC2=O)c1OCOC(=O)C(C)C` gave an LC50 of 5.41 ng/mL (≈ 8.8 nM) (Cyprinus carpio; mortality; water exposure, flow-through, 96 h).
`CCCCc1ccc(CNc2nc(N(C)C)nc(N(C)C)c2/N=N/c2ccc(Cl)cc2)cc1` gave a mortality of 70.3 ± 5.8% (Ostrinia furnacalis; leaf dipping; 50 mg/L, 96 h).
With `O=[N+]([O-])c1ccc(N2CCN(CCC(O)c3ccc(F)cc3)CC2)c(C(F)(F)F)c1` (stereo not shown) the survival was 92.7% (Salmonella typhimurium; SOS/umu test; TA1535/pSK1002; 0.016 mg/mL, 4 h, without S9, full range).
`[Cl-].[Cl-].[Pt+2].[Ru+2].c1ccc(-c2nc3cc4ccccc4cc3nc2-c2ccccn2)nc1.c1cnc2c(c1)ccc1cccnc12.c1cnc2c(c1)ccc1cccnc12` gave a survival rate of 76.7 ± 3.1% (Danio rerio; embryos; 90 µM, 12 h).
`CCCC[C@H](NC(=O)C1CN(C)C1)c1ncc(-c2cc3ccccc3nc2OC)[nH]1`: Ames mutagenicity “negative” (Salmonella enterica serovar Typhimurium; TA1535, TA98, TA100; with and without S9).

For quick reference, copied from above:
`CCCCc1ccc(CNc2nc(N(C)C)nc(N(C)C)c2/N=N/c2ccc(Cl)cc2)cc1` gave a mortality of 70.3 ± 5.8% (Ostrinia furnacalis; leaf dipping; 50 mg/L, 96 h).
`COc1ccnc(C(=O)N[C@H]2COC(=O)[C@H](Cc3ccccc3)[C@@H](OC(=O)C(C)C)[C@H](C)OC2=O)c1OCOC(=O)C(C)C` gave an LC50 of 5.41 ng/mL (≈ 8.8 nM) (Cyprinus carpio; mortality; water exposure, flow-through, 96 h).
